Measurements of several laboratories.
Each numbered part is a random draw from the data of one study; scales do not carry over between parts.

Study 1 — technique: RNA Bind-n-Seq; molecule type: RNA; matrix: in vitro; concentration: 365 nM; reference: no-protein control; direction: higher = stronger binding
Target: RNA binding protein fox-1 homolog 2, RRM domain, GST-SBP tag (RBFOX2, Homo sapiens, UniProt O43251-10, residues 100-194)
Setting: natural RNA segment, single round, ends assumed
Constant ends, left off below: GGGAGUUCUACAGUCCGACGAUC … UGGAAUUCUCGGGUGCCAA
Target sequence (chain): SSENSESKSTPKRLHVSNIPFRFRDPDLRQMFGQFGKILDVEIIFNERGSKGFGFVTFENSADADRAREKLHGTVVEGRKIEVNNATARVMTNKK
Strand | RBNS enrichment (R)
GGAGAAGCGCAUCUACCGGGUGCCUGUUUUCACAGCGCCCUUCUGCCAGGCCCUGCUGGAAGAGCUGGAGCACUUCGAGCAAUCGGACAUGCCUAAGGGGAGGCCCAACA | 0.469
GUCCCUGUCCAGGGCCCCGGCUUGGUUUCCAAGUGUAAAUACCGCCUCGCGCCUCAAAUCCCCCUACCCCGUGUGAACUCUAGGGCAUCGGACCUCAAGGGGUUAACUGG | 0.245
AAAAUCAAGUGGACUGAGUCAUUGAUAAAACAUUUCUAAGAGUGGGGCUAGAGAACAUACUUUACAUCUGACAUCCUUUGGCCUAACAACAUCUAUUAUUAUAGUGCUCA | 0.293
GUAUACUGUGUUGAAGCCAGACAGAAAAGUAAUGGGGCCACUUCUGAAACCUCUCAGCUGUUGAUCUCACAGCAGCUAAAGGGUUGUGCCAAACAUUUUAUUAAGAAAGU | 0.594
AGCCUGCCAGUCAGCGAUGUUGAGGAGGCUCUCGUGGGCUGCCUGCGCCACUCACCCUCAGUGUCCUUCCGUGAGGCUUCUCGCCAAAGAUGAUAGAGGGUGAAUGAUCU | 0.164
UUUCACAGUUAUUUCUAUCCACGCCUAUGAAUCUUUGGACGGUGAGAUCUCACAGAUGUCAGAACUGCUGGAACUAUGAAAUGGGGUAUAUAACCACGACUCUGGUGGGG | 1.17
CUAAUCUAUACACAGUCUAUCCAUAGAUGCAUAUUUUACCCCAACUGGCUAGAGAUUUAUUUGUUGUAAAUGCUGUAUAGAUUUUGGGUUUUUUUUUUUUGUUCUUCCUC | 0.751
AAAAAUUAAAUAAAACUAAUAUGAACAUAAAGAGGAAAUAAAAGGUACCUAACUUGGGCACAGCUGUAACUGAAGACCUAAUGAAGUAGUCAGAUGCUUACAACUAUUUA | 0.742
CAAGCUUCAUAUUAACCCUACCUGUCAACGUAACGAUUUCAUGAACGUUAUUAUAUUGUCGAAUUCCUACUGACAACAUUAUAACUGUAUGGGAGCUUAACUUUAUAAGG | 0.333
GGUGGCCUGAGUUGUUUAUGUUGGCAGAAGGUUGACAUUGGAUGCUCGAUUGCUUCAGCCUCACCGGGGCAUUGAAUCAUCAUUUGUUGAAUGGCAACAGGUUUGCUGGG | 1.85
GUGGGUGAGGGUCUGCCUGCCUGUUUCUGUCUGGGUGUCUGAGUUCCAAAAAAUGUGUGUUGUUUGUUCCUCCUCAUCCUCUUCUGAGACUGUUGUUUUUUUAGAGCUUG | 1.92
UCUCUCACUGAAUAAUGUUUACUGUACAGUCUUCCCAAGGUGAUUCCUGCGACUGCAGGCACUGGUCAUUUUCUCAUGUAGCUGUCUUUUCAGUUAUGGUAAACUCUUAA | 0.492

Study 2 — technique: universal PBM; molecule type: double-stranded DNA, one strand shown; matrix: in vitro; concentration: 600 nM; direction: higher = stronger binding
Target: Sal-like protein 4, full length isoform A (SALL4, Homo sapiens, UniProt Q9UJQ4, residues 1-1053)
Sequence of UniProt Q9UJQ4 (whole entry, looked up): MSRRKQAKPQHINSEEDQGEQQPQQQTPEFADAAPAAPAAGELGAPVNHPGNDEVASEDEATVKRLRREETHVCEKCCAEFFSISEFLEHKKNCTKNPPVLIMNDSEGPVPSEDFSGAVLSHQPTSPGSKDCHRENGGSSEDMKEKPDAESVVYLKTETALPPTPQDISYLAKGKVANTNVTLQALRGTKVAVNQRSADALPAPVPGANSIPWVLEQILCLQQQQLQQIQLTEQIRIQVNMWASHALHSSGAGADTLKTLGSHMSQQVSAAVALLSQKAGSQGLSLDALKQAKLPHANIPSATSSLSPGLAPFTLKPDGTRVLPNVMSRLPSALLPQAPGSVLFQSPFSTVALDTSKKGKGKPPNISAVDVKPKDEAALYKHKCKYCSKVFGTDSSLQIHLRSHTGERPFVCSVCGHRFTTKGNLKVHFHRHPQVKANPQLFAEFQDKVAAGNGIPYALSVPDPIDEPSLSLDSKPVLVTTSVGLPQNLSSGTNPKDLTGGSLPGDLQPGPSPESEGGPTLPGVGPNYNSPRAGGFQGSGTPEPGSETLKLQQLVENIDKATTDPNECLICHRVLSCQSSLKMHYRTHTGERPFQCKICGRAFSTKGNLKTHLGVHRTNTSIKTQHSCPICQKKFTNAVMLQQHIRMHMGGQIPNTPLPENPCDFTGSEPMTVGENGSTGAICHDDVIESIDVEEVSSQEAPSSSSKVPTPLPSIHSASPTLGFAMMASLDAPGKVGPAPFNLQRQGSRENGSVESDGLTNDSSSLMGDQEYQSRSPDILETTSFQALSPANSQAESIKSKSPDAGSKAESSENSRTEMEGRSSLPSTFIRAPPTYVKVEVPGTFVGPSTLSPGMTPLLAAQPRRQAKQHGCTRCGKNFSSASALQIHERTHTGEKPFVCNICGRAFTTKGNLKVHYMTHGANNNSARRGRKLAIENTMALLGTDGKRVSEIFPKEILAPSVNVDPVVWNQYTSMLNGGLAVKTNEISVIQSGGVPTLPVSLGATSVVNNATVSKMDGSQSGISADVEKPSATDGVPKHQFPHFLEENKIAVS
Setting: 8-mer, flanks averaged, mean of replicates
Strand | E-score
GATAAGCC | -0.138
ATATTGTG | 0.313
AAGAACAG | 0.0523
CCAGATCA | 0.116
CAGGACAC | -0.116
GCCCGCTA | -0.245
CGTTGAGA | -0.125
GTCTCACA | 0.0413
CATGGACC | -0.187
CCTTGGCG | -0.422
AGCACGAC | -0.284
AGACCATC | -0.00988
AATTTACG | 0.169
AGTAAACG | 0.0203
GTCCCAAC | -0.105
CTTGGGGA | 0.0168

Study 3 — technique: competition protein-binding microarray; molecule type: double-stranded DNA, one strand shown; matrix: in vitro; concentration: 2 µM; with: Pho4 competitor, 0.05 µM; direction: higher = stronger binding; constant ends, left off below: … GTCTTGATTCGCTTGACGCTGCTG
Target: Centromere-binding protein 1, full length, His-tagged (CBF1, Saccharomyces cerevisiae, UniProt P17106, residues 1-351)
Sequence of UniProt P17106 (whole entry, looked up): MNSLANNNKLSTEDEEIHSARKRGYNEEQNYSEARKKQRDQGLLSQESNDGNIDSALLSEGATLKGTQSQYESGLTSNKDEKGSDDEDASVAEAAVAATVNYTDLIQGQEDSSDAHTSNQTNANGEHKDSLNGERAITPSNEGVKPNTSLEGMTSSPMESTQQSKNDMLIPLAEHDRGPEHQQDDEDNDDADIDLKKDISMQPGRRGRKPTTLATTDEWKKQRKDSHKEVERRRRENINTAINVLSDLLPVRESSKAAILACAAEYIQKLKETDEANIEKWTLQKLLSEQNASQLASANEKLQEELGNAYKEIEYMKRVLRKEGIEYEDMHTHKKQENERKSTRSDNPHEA
Setting: whole 60-bp probe, lowest competitor level
Strand | fluorescence intensity [a.u.]
GCTGGAATGCCGCGACAGATGTAACAAGAATGTGTT | 67.2
CTAACGAAGGTTTGTCACTGGACTTACAAGCCAAGT | 75.8
AAATGCAGCCAAAGATGCGTGCCGATGCAGTTAGCT | 67.3
AGGCAAGGAGAGCACCATGTGCTGAGTCACAAATAC | 124
CATACCCAACCTTGAAACGTGGGTGAAGATATTTGT | 94.7
AAAGCGGTAATTTGTACAGTGGGTGCAGATATCTAT | 86.1
CGGGGTTAAGTTTGAAGCGTGGGTGGCTTGCAGCAG | 61.6
CTAACGAAGGTTTGATAAGTGGGTGACAAGCCAAGT | 64.3
TGTGGAGTTCAGCTTGCTACGAATACGCAGTTTTAG | 83.3
ACCAGCACCACCAACCACCTGAACCCCAACCATATT | 78.9
CATACCCAACCTTTTCACGTGTGCTAAGATATTTGT | 831
GGCAATTTGTATTGCCATGTGCTGCAGGCATGTCTG | 131
CTTTCCCGATCTTGTCACTGCACTTTAGCACATTTG | 74.9
ATATTTTTCCCGTCCTGCGTGCTGTCCCAATACAAT | 139
CATACCCAACCTTGCTGCGTGGGTGAAGATATTTGT | 67.2
GCGTCCTGTAAAGAGAGCGTGCGATAAGCCGCTATT | 60.4
GCAATTCCTTTCTGAAACGTGAAAAGATACCGTCAA | 103
AACTCTCCACCCTTGCACATGTCTTCAGATTCGTCC | 118
GTCATAGACAGAACACACGTGGTGAGGAAAAAGGAC | 924
TAAAAGAGGTTCTCACTCGTGAATACACCATCAACT | 80.6
CGTCCTAGTGATTGCACTGTGGGTGCCATGAGGAAG | 78.8
CGGGGTTAAGTTTGTAGTGTGGGTGGCTTGCAGCAG | 73.5

Study 4 — technique: protein binding microarray; molecule type: double-stranded DNA, one strand shown; matrix: in vitro; concentration: not given; reference: not given; direction: higher = stronger binding
Target: Histone acetyltransferase KAT6A, winged helix 2, GST fusion (KAT6A, Homo sapiens, UniProt Q92794, residues 85-181)
Setting: 8-mer, flanks averaged, mean of 2 arrays, mostly near background
Target sequence (chain): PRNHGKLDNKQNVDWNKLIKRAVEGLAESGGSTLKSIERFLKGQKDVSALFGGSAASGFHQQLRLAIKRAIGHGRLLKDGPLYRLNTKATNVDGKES
Strand | E-score
ATGTTACA | 0.103
CCACCCCG | 0.149
TGGTTCAA | 0.0373
GCATCTAA | 0.0431
CTCCGTCA | 0.0645
GGAACTTA | -0.0576
CTAGCAGC | -0.017
GGAGAAGA | -0.0422
GGCATCTA | -0.0977
ATCCTGGA | 0.0101
CCGTTATA | 0.102
CGCACAAA | 0.215
GACGTACC | -0.0884
AGGGGCTA | 0.0274
ACTGCATC | 0.00559
TACTCTAA | -0.127
GTTTGGTA | 0.00314
GAACGGGC | 0.0224
GCTCGTGA | -0.0663
CCCTATAG | -0.218
AGCCGGCT | 0.101
GCCAGAGC | 0.0465
AGAAAACT | 0.0777
TCCCCGGA | 0.132
GATTGCCA | 0.101

Study 5 — technique: protein-binding microarray; molecule type: double-stranded DNA, one strand shown; matrix: in vitro; concentration: 2540 nM top; setting: 60-bp whole probe; with: salmon DNA 0.4 mg/ml; reference: random background probes; direction: higher = stronger binding; constant ends, left off below: GCCTAGCAC … GTCTTGATTCGCTTGACGCTGCTG
Target: Interferon regulatory factor 3, full length, phosphomimetic (IRF3, Homo sapiens, UniProt Q14653, residues 1-427, S386D/S396D/S398D/S402D/T404D/S405D)
Residues (chain): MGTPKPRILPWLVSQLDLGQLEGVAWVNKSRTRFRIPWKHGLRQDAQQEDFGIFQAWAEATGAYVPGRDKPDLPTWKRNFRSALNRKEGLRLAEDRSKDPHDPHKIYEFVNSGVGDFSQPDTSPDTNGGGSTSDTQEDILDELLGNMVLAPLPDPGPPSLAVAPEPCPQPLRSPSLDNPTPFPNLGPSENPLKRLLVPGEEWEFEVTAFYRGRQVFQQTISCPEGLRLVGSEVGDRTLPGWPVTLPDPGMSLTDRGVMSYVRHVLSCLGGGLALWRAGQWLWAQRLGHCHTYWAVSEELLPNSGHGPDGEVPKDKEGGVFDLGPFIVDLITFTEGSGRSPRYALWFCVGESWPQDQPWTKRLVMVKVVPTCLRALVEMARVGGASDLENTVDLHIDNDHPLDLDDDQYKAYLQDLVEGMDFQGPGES
Strand | fitted relative affinity [z-score]
TTAGGACTGTACACTGGGTTAGTGCTA | -0.635
GACGGAATGGACTTTCGGGACGTGCTA | 0.388
GTGTATATACTATATGCATGTGTGCTA | 0.128
GACGCTTTCAGACTGGAGACGTGCTAG | 0.803
TCACACACCATTCTCGGACTGTGCTAG | 1.82
TCAATTTTCGTTTTGTGACTGTGCTAG | 3.96
TTAGGTTTCGGTATCGCTTAGTGCTAG | 8.57
GACGGTTTCGACACTAGGGACGTGCTA | 3.22
GACGGTTCCGGATTCGGGACGTGCTAG | 3.99
TTAGGACTGGGTATCGGATAGTGCTAG | 0.242
TCAGTCATCTATAATGGAACTGTGCTA | 0.0515
TCAACTCTCAGAATCTCACTGTGCTAG | 0.531
TCACTTTTATCCCTGACACTGTGCTAG | 1.42
CCACCACCAACACCAGTCATGTGCTAG | -0.0419
TTAGATAACAGACTGGATTAGTGCTAG | -0.238
GACGGACTGCTTTTCCTGACGTGCTAG | -0.117
TCAAATCTCACTCTGTCACTGTGCTAG | 0.396
GAACATACTAATTTCCATTTGTGCTAG | 2.82
GACAGTATCGACTATCGGGACGTGCTA | 0.442
GTAGATTTCGGGTATCGATTAGTGCTA | 1.68
GACTGTATCGGACTGGGGACGTGCTAG | 1.35
TTATGTTTCCTTCTCCTTTAGTGCTAG | 8.94
AACGGTATCGGTTTCGGGACGTGCTAG | 7.08
TTAGATCGCAGTCTCGATTAGTGCTAG | 0.209
TTAGATTCCAGTTTCGCTTAGTGCTAG | 4.67

Study 6 — technique: RNAcompete; molecule type: RNA; matrix: in vitro; concentration: 20 nM; setting: 7-mer, probes averaged, single round; reference: mean of 7-mers; direction: higher = stronger binding
Target: PABPC1L2, full length, GST fusion (mouse, UniProt A0ABA7IW68)
Target sequence (chain): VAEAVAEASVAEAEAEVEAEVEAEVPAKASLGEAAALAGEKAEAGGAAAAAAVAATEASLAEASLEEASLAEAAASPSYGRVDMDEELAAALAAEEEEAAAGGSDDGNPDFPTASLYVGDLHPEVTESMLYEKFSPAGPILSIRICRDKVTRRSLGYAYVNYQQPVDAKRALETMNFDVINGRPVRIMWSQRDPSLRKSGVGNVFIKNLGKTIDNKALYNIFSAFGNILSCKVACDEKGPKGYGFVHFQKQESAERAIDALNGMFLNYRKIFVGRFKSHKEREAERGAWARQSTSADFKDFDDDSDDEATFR
Strand | 7-mer Z-score
CGGAUCU | -0.0699
UACUGAC | -0.255
ACAUAUA | 0.0877
AAGCUAA | 0.0478
UCGCUUC | -0.532
CAUGCAU | -0.291
CAUGAUC | -0.159
GAAACAG | 2.12
AACUAAA | 1.47
AACUUAU | -0.0645
UAUGCCA | -0.0899
AACACGC | 0.244
GAGGGAU | 0.187
CGCCGCG | -0.492
UGUUCAG | -0.347
CGUGAAA | 0.501
UAGCUAU | -0.2
UUAUGAA | 0.0932
UAAGAGC | -0.133
